Published values from different studies.
Numbered parts are unrelated; each lists some results of a single study. Substitutions count along the parent as printed.
Chain of UniProt Q9ZSY8 (whole entry, looked up): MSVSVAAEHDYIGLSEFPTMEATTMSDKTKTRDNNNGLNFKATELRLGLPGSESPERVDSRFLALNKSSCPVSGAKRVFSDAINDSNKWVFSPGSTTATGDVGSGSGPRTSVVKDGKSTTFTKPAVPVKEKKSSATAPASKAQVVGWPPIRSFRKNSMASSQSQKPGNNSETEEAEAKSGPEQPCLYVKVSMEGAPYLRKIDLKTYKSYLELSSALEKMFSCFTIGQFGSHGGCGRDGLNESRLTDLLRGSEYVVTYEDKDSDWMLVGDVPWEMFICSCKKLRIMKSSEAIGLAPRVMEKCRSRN
Chain of UniProt O24409 (whole entry, looked up): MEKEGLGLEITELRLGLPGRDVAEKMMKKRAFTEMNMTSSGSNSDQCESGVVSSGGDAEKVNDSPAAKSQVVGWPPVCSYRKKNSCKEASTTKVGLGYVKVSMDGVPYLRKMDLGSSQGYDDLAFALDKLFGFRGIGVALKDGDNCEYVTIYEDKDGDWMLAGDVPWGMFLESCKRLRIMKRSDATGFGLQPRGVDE
Chain of UniProt Q9ZTX8 (whole entry, looked up): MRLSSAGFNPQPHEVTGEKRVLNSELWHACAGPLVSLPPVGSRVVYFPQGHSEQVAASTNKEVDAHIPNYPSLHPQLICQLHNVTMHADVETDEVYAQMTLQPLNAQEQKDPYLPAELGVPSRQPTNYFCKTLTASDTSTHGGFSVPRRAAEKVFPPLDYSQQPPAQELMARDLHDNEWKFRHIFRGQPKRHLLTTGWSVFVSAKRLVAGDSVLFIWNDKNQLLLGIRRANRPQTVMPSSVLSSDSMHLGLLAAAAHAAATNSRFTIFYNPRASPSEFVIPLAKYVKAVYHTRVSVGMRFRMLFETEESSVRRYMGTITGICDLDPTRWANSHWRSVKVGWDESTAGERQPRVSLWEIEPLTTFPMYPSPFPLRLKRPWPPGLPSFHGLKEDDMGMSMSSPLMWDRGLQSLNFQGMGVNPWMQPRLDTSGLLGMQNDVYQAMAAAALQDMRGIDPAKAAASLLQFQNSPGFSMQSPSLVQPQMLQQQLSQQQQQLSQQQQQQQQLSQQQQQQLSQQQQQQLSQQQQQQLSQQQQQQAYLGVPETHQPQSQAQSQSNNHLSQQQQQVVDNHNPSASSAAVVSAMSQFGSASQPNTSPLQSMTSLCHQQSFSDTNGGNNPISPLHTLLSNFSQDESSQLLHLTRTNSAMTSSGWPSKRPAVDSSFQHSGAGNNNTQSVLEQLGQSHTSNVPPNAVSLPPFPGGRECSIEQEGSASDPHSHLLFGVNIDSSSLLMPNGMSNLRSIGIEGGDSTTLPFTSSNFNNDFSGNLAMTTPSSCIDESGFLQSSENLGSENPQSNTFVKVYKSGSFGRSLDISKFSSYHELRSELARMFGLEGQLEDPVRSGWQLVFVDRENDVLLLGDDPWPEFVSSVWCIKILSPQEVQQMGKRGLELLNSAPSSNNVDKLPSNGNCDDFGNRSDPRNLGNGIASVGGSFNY
Chain of UniProt O24407 (whole entry, looked up): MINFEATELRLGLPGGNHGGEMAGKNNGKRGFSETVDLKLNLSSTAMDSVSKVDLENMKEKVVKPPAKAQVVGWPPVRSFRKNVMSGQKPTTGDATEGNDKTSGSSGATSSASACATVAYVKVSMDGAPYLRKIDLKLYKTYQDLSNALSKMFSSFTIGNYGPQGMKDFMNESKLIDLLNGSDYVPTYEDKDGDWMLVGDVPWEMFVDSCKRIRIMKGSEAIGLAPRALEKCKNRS
Chain of UniProt Q9FGV1 (whole entry, looked up): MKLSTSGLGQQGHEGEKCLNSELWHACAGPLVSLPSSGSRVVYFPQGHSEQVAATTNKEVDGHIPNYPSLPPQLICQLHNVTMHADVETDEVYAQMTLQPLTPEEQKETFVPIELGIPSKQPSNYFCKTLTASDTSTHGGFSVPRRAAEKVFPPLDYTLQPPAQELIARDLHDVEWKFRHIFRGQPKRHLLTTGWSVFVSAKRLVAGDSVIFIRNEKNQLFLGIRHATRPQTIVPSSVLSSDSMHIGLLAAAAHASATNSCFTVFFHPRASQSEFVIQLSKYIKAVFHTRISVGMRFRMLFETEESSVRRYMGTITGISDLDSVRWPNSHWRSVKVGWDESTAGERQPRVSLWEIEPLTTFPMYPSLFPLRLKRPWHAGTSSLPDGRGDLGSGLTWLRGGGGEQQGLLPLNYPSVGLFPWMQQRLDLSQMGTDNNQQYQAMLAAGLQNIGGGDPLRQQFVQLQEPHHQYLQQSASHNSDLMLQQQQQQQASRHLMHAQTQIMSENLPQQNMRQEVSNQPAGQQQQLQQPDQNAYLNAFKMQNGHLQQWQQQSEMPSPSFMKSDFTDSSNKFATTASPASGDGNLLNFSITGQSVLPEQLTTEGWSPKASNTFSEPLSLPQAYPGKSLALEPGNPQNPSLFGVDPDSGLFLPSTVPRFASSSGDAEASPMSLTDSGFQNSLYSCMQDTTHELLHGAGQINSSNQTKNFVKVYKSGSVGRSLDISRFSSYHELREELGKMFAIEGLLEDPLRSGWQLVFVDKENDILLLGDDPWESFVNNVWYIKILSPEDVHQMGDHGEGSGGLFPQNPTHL
Chain of UniProt Q9FX25 (whole entry, looked up): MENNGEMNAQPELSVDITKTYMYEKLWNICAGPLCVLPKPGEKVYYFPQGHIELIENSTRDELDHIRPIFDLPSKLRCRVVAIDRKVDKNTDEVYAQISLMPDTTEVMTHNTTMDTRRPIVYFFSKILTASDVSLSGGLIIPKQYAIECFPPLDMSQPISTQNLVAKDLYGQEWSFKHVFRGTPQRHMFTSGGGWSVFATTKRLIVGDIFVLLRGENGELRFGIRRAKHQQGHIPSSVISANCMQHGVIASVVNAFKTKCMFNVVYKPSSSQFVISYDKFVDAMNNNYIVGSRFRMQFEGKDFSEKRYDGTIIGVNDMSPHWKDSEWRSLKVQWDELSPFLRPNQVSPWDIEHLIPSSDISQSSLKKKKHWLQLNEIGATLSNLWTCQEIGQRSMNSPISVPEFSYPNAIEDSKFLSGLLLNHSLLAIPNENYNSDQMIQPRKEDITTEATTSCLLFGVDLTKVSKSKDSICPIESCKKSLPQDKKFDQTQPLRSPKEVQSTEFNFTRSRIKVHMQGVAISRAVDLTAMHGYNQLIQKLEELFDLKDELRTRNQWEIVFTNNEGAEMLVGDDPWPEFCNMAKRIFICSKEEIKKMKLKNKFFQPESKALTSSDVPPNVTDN
Chain of UniProt Q8H174 (whole entry, looked up): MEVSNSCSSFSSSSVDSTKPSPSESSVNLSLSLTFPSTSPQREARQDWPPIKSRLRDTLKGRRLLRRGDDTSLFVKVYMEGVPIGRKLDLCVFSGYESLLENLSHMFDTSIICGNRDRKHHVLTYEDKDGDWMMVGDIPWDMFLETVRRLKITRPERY
Chain of UniProt Q38830 (whole entry, looked up): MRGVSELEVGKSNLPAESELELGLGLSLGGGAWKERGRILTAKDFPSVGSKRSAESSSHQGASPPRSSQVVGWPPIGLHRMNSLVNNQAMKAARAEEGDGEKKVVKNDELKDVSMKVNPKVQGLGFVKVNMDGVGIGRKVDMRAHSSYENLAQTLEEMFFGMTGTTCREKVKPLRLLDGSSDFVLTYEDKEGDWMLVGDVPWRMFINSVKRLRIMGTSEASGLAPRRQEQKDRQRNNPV
Chain of UniProt P93024 (whole entry, looked up): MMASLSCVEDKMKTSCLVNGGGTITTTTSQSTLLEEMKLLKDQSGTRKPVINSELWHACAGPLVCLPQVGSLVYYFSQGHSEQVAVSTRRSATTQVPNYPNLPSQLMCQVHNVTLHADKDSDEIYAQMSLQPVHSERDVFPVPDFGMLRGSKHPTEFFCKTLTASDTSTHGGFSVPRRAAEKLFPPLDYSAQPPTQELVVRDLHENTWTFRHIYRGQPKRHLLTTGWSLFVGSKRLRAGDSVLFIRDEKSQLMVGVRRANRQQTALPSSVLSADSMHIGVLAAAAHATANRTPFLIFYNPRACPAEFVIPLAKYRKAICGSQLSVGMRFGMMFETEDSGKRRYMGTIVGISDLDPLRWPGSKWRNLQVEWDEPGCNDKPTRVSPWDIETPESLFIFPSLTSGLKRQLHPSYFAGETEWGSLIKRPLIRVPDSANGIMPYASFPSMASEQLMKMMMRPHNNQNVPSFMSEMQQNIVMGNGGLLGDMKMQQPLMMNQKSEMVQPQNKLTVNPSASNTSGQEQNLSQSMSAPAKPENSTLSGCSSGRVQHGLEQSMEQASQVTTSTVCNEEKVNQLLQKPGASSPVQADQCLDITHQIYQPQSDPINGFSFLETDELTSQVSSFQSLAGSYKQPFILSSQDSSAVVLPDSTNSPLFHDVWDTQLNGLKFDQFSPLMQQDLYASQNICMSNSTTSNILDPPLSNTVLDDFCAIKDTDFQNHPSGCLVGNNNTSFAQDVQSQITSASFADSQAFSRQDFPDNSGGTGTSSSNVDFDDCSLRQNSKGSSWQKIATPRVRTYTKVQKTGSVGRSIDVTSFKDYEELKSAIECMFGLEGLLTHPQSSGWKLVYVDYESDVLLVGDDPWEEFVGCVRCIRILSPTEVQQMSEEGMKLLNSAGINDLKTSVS

Study 1
Molecule: IAA11 (Arabidopsis thaliana, UniProt Q38829)
Chain of UniProt Q38829 (whole entry, looked up): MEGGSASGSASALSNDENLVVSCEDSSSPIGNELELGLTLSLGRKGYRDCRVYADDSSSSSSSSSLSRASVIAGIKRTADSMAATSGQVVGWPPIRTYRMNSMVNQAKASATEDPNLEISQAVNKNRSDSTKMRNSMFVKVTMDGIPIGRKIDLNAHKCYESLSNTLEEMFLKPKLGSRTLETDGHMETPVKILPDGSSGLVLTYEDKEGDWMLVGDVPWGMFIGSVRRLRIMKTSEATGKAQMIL
Method: two-hybrid
Notes: weak activation fusion
Reading: higher = firmer interaction
| partner | baseline | positive tests |
| --- | --- | --- |
| IAA34 (Arabidopsis thaliana, UniProt Q9C5X0) | out of 4 tests | 1 |
| ARF4 660-788 (Arabidopsis thaliana, UniProt Q9ZTX9) | out of 2 tests | 0 |
| ARF8 699-811 (Arabidopsis thaliana, UniProt Q9FGV1) | out of 4 tests | 0 |
| IAA32 (Arabidopsis thaliana, UniProt Q8RYC6) | out of 4 tests | 0 |
| ARF18 482-602 (Arabidopsis thaliana, UniProt Q9C5W9) | out of 4 tests | 1 |
| ARF11 500-622 (Arabidopsis thaliana, UniProt Q9ZPY6) | out of 2 tests | 0 |
| IAA19 (Arabidopsis thaliana, UniProt O24409) | out of 4 tests | 2 |
| IAA31 (Arabidopsis thaliana, UniProt Q8H174) | out of 2 tests | 0 |
| IAA12 (Arabidopsis thaliana, UniProt Q38830) | out of 4 tests | 1 |
| IAA15 (Arabidopsis thaliana, UniProt Q9C966) | out of 2 tests | 0 |
| ARF19 948-1086 (Arabidopsis thaliana, UniProt Q8RYC8) | out of 4 tests | 0 |
| ARF5 788-902 (Arabidopsis thaliana, UniProt P93024) | out of 4 tests | 2 |
| ARF22 498-598 (Arabidopsis thaliana, UniProt Q9C8N7) | out of 2 tests | 0 |
| ARF13 (Arabidopsis thaliana, UniProt Q9FX25) | out of 4 tests | 0 |
| ARF6 790-935 (Arabidopsis thaliana, UniProt Q9ZTX8) | out of 4 tests | 3 |
| IAA16 (Arabidopsis thaliana, UniProt O24407) | out of 4 tests | 2 |
| IAA17 (Arabidopsis thaliana, UniProt P93830) | out of 2 tests | 0 |
| ARF1 538-665 (Arabidopsis thaliana, UniProt Q8L7G0) | out of 4 tests | 0 |
| IAA27 (Arabidopsis thaliana, UniProt Q9ZSY8) | out of 2 tests | 0 |

Study 2
Target: ABI1, truncated, D143A, DHFR fusion (Arabidopsis thaliana)
Method: DHFR PCA, deep sequencing
Sample: yeast
Notes: methotrexate growth selection, single substitutions
With: (+)-ABA 0.39 µM
Baseline: wild-type fitted maximum
Reading: higher = stronger binding
Starting sequence: PYL1, truncated, DHFR fusion (Arabidopsis thaliana); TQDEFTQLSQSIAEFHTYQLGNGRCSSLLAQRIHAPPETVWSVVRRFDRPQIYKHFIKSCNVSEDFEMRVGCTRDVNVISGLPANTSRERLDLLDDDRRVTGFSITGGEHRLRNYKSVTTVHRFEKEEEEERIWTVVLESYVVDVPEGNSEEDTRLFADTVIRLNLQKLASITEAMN; partner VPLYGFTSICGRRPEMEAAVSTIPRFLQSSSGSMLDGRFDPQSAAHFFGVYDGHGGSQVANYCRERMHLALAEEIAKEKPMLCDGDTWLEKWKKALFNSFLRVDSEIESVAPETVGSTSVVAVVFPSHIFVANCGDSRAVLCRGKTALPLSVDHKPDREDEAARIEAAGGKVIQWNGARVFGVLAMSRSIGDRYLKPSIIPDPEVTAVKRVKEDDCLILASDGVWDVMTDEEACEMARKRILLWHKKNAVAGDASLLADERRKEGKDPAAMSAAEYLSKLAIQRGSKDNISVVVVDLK
| Variant | relative binding score [%] |
| --- | --- |
| V161N | 17.9 |
| N149G | 58.8 |
| G108P | -12.3 |
| S140C | 3.41 |
| T6R | 58.2 |
| K54L | -2.24 |
| L29R | 0.422 |
| D153V | -5.22 |
| S87Q | 48.7 |
| G71Q | -6.02 |
| R24F | -2.78 |
| R45Q | -19.6 |
| M68L | 74.7 |
| V78W | 81.1 |
| T106Y | 22.6 |
| Y115T | 3.32 |

Study 3
Target: RNA binding protein fox-1 homolog 2, RRM domain, GST-SBP tag (RBFOX2, Homo sapiens, UniProt O43251-10, residues 100-194)
Method: RNA Bind-n-Seq
Molecule type: RNA
Sample: in vitro
Concentration: 365 nM
Notes: natural RNA segment, single round, ends assumed
Baseline: no-protein control
Reading: higher = stronger binding
Constant ends, left off below: GGGAGUUCUACAGUCCGACGAUC … UGGAAUUCUCGGGUGCCAA
Residues (chain): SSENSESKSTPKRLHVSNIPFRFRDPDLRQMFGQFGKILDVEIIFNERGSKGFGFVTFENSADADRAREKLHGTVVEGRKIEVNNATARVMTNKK
| Strand | RBNS enrichment (R) |
| --- | --- |
| UAAUUAUUUUUCUCUAAAUGAACUGUACAUUUAUCUUAAAUAAAAAUUUAUUUUUGAGAUAACUGUUGCAAAGUCUACUUUUUCUAGAGACCUUCUUGGGGGAAACAUUG | 0.437 |
| GUGGUGGCAGCACAGUGGCAGGCCAGUGGUCAACUUAGGGCAUCUUUUCUCUGCCACGGCAGCGCAAUGCAAAGAGCAGACAUGGCCUCUUGCUUCUCUUCACAGCCAUA | 0.459 |
| UGAGGACUGAACUGACCAGAUAGCGGCCCCAUCACCCCUACUGCUCCUUGGACCCCUUGGCCCAACCUGUCUGCCUGCACCAGCGUCAGGCCCCACCAUCGGGACAUCAC | 1.78 |
| UGAAAAAUGGGGAAAACUGCUAAACAUCCCAGAGAUUUGCAAUCUUCUAGCUCUCCAGGUGAGCAGAAAGACCAAAUAUCCAAAUAAAAGCCUGAAAGCCAUUGGUGAUC | 0.356 |
| UGCAGUUGAGCAAGGAAGCUGAGGUUGGAACCAUUAAACUAUUUCUUCCCAUUUUCAAAAGGACCUUAGAGUAGAGUGGGCUUUAGAAAAGGGCUUCACCCAGCUGCUUG | 1.02 |
| CUUCUGAAAGCACUAAGUUUUCAGUUUUGGAGUUACUUCUCCCUUGCCUCUGACACACUGCACACGUCUAGAGGCUGUAAUUGGAAAUAGGCUUUUGGUUUCCUGUGCCA | 0.792 |
| UUGUUCCUAUCCAGGUUCAGGGCCUUCAGGGGGCCUCUUUUCAUUUUCUCCCACAGGCCUCUCUUUCUUUCUAGGUUGCUGGGGAGAAAUGGGUACCCUAUGAUCCCCCU | 0.395 |
| AACUAUUUACAGAACAUGCAUCCUUAAACUGUGACUUCUCACCUAGUGCAGAACUUUUACCAGGCUGUAAAAGCAAAACCUCGUAUCAGCUCUGGAACAAUACCUGCAGU | 0.361 |
| AUGAAAUAAAAAAAAAAAGGAUGGGUUUUGUAAAAAUAAUAAAAAAAAUAUUUUUAGCAGAACAGGACUUACAGGGUCAUUGUCCCCACAAUGUGCCAGUCGGCUCUUUG | 0.886 |
| AUCAUGAGAAGAUGUGUAAUUUUAUACCACAUUUAUAAAACAUGAUUUUGUUUUCUACCCUUCAAGGUAAACAUUAAAAAUAAGGUGGUACUUGUGUACUUGUACAUAAA | 0.305 |
| CUAUUUCAGUGCUGUAGCUGUUAGUUUUAAGUGAGUGCUAAAGUUCUUUUAAAAGUACACAGAAUUUCCAUUCCUUAUAAAGGUGGCAAAAUUGGUUUGUCAUUUACCUC | 0.739 |
| CUCAGUCACAUGAAGUGUGACACUGAACAGGUAGAAAGCACUGAAAAUCGUGUUCCAAGAGCACUUUGUAACUCACUGAGGGGGAGGGGAAGCACCUUUUGGGUUUGCGA | 0.657 |

Study 4
Target: CCNB3, cyclin fold, Cln2 fusion (human)
Method: yeast growth competition, sequencing
Sample: yeast
Notes: weak parent motif
Baseline: not given
Reading: higher = stronger binding
Starting sequence: CCP110 docking peptide (human); EKVKRRLDLDIDG; partner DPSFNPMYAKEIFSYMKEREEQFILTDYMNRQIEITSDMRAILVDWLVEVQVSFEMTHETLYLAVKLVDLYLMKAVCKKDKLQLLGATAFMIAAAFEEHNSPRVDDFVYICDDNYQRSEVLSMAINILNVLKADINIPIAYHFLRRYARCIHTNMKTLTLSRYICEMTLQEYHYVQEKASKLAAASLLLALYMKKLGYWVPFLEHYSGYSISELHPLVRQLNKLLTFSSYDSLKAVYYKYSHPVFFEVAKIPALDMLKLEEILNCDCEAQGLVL
| Variant | normalised enrichment score |
| --- | --- |
| L9A | -0.0943 |
| R5A | 0.212 |
| R5K | 0.101 |
| L7A | -0.473 |
| D12A | 0.514 |
| E1A | 0.255 |
| K4A | -0.0222 |
| R5A L7A | 0.0645 |
| L9F | 2.53 |
| I11A | 0.223 |

Study 5
Target: ATF1, bZIP domain (human)
Method: DHFR protein complementation
Sample: yeast
Notes: single substitutions, most at no-binding floor
Baseline: wild-type JUN-FOS pair
Reading: higher = stronger binding
Starting sequence: JUN, bZIP domain (human); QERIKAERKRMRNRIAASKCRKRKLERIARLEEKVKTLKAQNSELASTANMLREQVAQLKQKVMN; partner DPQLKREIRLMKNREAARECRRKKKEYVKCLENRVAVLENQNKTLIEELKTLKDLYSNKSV
| Variant | binding fitness |
| --- | --- |
| L52N | -1.7 natural log |
| K34N | -1.38 natural log |
| E32T | -1.54 natural log |
| E54S | -1.51 natural log |
| M51Q | -1.51 natural log |
| T48Q | -1.44 natural log |
| A29L | -1.45 natural log |
| V56F | -1.44 natural log |
| R53T | -1.52 natural log |
| K39T | -1.48 natural log |
| T37L | -1.52 natural log |
| L31D | -1.42 natural log |
| L45S | -1.51 natural log |
| K36S | -1.6 natural log |
| T48F | -1.52 natural log |
| E33I | -1.42 natural log |

Study 6
Molecule: PhoQ, residues 284 288 289 292 302 303 QWQEDG
Method: Sort-seq
Measured: YFP reporter
Sample: E. coli
Notes: PhoQ-PhoP variant library
With: 10 µM Mg2+
Baseline: high Mg2+ state
Reading: higher = stronger signaling
| target | fold induction |
| --- | --- |
| PhoP, residues 12 14 15 18 19 VGHWL (Escherichia coli, UniProt P23836) | 10.6 |
| PhoP, residues 12 14 15 18 19 NFFVT (Escherichia coli, UniProt P23836) | 10.4 |
| PhoP, residues 12 14 15 18 19 TPWTL (Escherichia coli, UniProt P23836) | 1.29 |
| PhoP, residues 12 14 15 18 19 LHHYF (Escherichia coli, UniProt P23836) | 7.07 |

A few entries again (study 6):
| target | fold induction |
| --- | --- |
| PhoP, residues 12 14 15 18 19 VGHWL (Escherichia coli, UniProt P23836) | 10.6 |
| PhoP, residues 12 14 15 18 19 NFFVT (Escherichia coli, UniProt P23836) | 10.4 |
| PhoP, residues 12 14 15 18 19 TPWTL (Escherichia coli, UniProt P23836) | 1.29 |
| PhoP, residues 12 14 15 18 19 LHHYF (Escherichia coli, UniProt P23836) | 7.07 |
